Measurements of several laboratories.
Each line is one published result; not all experiments were run side by side. Several values in a cell are separate wells, animals, samples, runs or records. ± gives the spread as reported.
FFAR4: Free fatty acid receptor 4 (FFAR4, Homo sapiens, UniProt Q5NUL3)
TRPM8: Transient receptor potential cation channel subfamily M member 8 (TRPM8, Homo sapiens, UniProt Q7Z2W7)
PDE1C isoform PDE1C2: Dual specificity calcium/calmodulin-dependent 3',5'-cyclic nucleotide phosphodiesterase 1C, isoform PDE1C2 (PDE1C, Homo sapiens, UniProt Q14123)
Maoa: Amine oxidase [flavin-containing] A (Maoa, Rattus norvegicus, UniProt P21396)
NADH dehydrogenase [ubiquinone] iron-sulfur protein 7, mitochondrial/NADH dehydrogenase [ubiquinone] iron-sulfur protein 2, mitochondrial/MT-ND1: NADH dehydrogenase [ubiquinone] iron-sulfur protein 7, mitochondrial/NADH dehydrogenase [ubiquinone] iron-sulfur protein 2, mitochondrial/MT-ND1 (Homo sapiens, UniProt O75251+O75306+P03886)
GAP50: Glideosome-associated protein 50 (GAP50, Plasmodium falciparum, UniProt Q8I2X3)
Kir3.1/Kir3.2: Kir3.1/Kir3.2 (Homo sapiens, UniProt P48051+P48549)

CC1=C[C@H](O)CC(C)(C)[C@H]1/C=C/C(C)=C/C=C/C(C)=C/C=C/C=C(C)/C=C/C=C(C)/C=C/C1=C(C)C[C@@H](O)CC1(C)C — binding stoichiometry (Beta-lactoglobulin (LGB, Bos taurus, UniProt P02754); isothermal titration calorimetry; concentration not given): 2
O=c1cc(NCCc2ccc(F)cc2)[nH]c(=O)[nH]1 — agonist effect (FFAR4; agonist, β-arrestin recruitment; CHO cells; 10 µM; reference: 30 µM TUG-891): 2 ± 1%
COc1cc2ncnc(N3CCN(C(=O)Nc4ccc(Oc5ccccc5)cc4)CC3)c2cc1OC — remaining activity (TRPM8; antagonist; HEK293; 5 µM; reference: control): 114 ± 11.7%
Cc1cc2c(c(=O)[nH]1)C(=O)O/C2=C\c1cc(F)ccc1OCCN1CCOCC1 — binding free energy (PDE1C isoform PDE1C2; enzyme activity, inhibitor; with: 3H-cGMP substrate): -10.2 kcal/mol
NCc1ccc(Br)cc1 — log Kd (Maoa; pKa-corrected): -6.1 M
O=c1cc(NCc2ccccc2)[nH]c(=O)[nH]1 — inhibition (FFAR4; antagonist, β-arrestin recruitment; CHO cells; 10 µM, with: 4 µM TUG-891): 37 ± 5%
NC(=O)NOCCCCCCCCCCCCCC[P+](c1ccccc1)(c1ccccc1)c1ccccc1.O=C([O-])C(F)(F)F — oxygen consumption rate (NADH dehydrogenase [ubiquinone] iron-sulfur protein 7, mitochondrial/NADH dehydrogenase [ubiquinone] iron-sulfur protein 2, mitochondrial/MT-ND1; complex I-dependent respiration, Seahorse XF96; HCT-116; 1.5 µM, 24 h; reference: control): 47.6 ± 11.2%
O=C1NC(=O)c2c1c1c3ccccc3[nH]c1n1cncc21 — remaining activity (TRPM8; antagonist; HEK293; 5 µM; reference: control): 99.3 ± 3.15%
CCN1CCN(c2cc(N3CCN(CC)CC3)nc(NCCNc3ccnc4cc(Cl)ccc34)n2)CC1 — activation (Nuclear receptor subfamily 4 group A member 2 (Homo sapiens, UniProt P43354); reporter gene, full-length homodimer NurRE reporter; 20 µM; reference: vehicle): 1.45 fold
COc1cccc(C(=O)NCc2ccc(CNS(=O)(=O)c3ccccc3)cc2)c1 — EC (CXCR4 (Homo sapiens, UniProt P61073); binding, inhibitor, competitive binding; MDA-MB-231; with: biotinylated TN14003): > 1000 nM
CC(C)CCNc1cc(=O)[nH]c(=O)[nH]1 — agonist effect (FFAR4; β-arrestin recruitment; CHO; 10 µM; reference: 30 µM TUG-891): 0%
O=C(NC1CCC1)c1ccc2nc(-c3cccc(NS(=O)(=O)NCCN4CCCCC4)c3)cn2c1 — protein level (Protein ENL (MLLT1, Homo sapiens, UniProt Q03111); degrader, immunoblot, refers to: MLLT1; 10 µM, 4 h; reference: DMSO control): 9%
O=c1cc(NCCc2cccc(Cl)c2)[nH]c(=O)[nH]1 — activation (FFAR4; agonist, β-arrestin recruitment; CHO cells; 10 µM): 1 ± 1%
NC(=O)NO — oxygen consumption rate (NADH dehydrogenase [ubiquinone] iron-sulfur protein 7, mitochondrial/NADH dehydrogenase [ubiquinone] iron-sulfur protein 2, mitochondrial/MT-ND1; complex I-dependent respiration, Seahorse XF96; HCT-116; 3000 µM, 24 h; reference: control): 83.1 ± 5.77%
N#Cc1c(N)nc(-c2ccccc2)nc1C(F)(F)F — Hill slope (3-oxoacyl-[acyl-carrier-protein] reductase FabG (fabG, Pseudomonas aeruginosa, UniProt O54438); enzyme activity, inhibitor, NADPH fluorescence; reverse reaction, with: 3-OH-decanoyl-NAC, NADP): 1.6
N#CC(c1ccnc(NCCc2cccnc2)n1)c1nc2ccccc2s1 (centres unmarked) — remaining activity (TRPM8; antagonist; HEK293; 5 µM; reference: control): 92.2 ± 1.51%
COc1ccc([C@@H]2CC(c3cccs3)=NN2C(=O)c2ccco2)cc1OC — koff (GAP50; binding, surface plasmon resonance; 1:1 binding model): 1.22 s⁻¹
COc1c(Nc2cc(C(F)(F)F)cc(C(F)(F)F)c2)c(=O)c1=O — kobs (CD209 antigen (CD209, Homo sapiens, UniProt Q9NNX6); covalent labelling, intact protein MS; 500 µM): 0.00193 min⁻¹
O=c1nc(SCc2cc(F)cc(C(F)(F)F)c2)nc(SCc2ccc3sccc3c2)[nH]1 — ATP hydrolysis rate (TOP2A (Homo sapiens, UniProt P11388); ATPase activity; 3.9 µM, with: ATP 0.75 mM): 2.1 µM/min and 2.16 µM/min
O=Nc1c(NCCCc2ccccc2)[nH]c(=O)[nH]c1=O — inhibition (FFAR4; antagonist, β-arrestin recruitment; CHO cells; 10 µM): 15 ± 12%
C=CC(=O)N1CCC(COCC(=O)N2CCN(c3nc(-c4cnc(N)nc4C(F)F)nc(N4CCOC[C@@H]4C)n3)CC2)CC1 — remaining binding (MYLK2 (Homo sapiens, UniProt Q9H1R3); KINOMEscan; 1 µM): 100%
COc1cc(O)c2c(c1)oc(=O)c1c3cc(O)c(O)cc3oc21 — ΔH (MAL12 (Saccharomyces cerevisiae S288c, UniProt P53341); fluorescence quenching; 304 K): -105 kJ/mol
CC(C)[C@H](NC(=O)c1cc(-c2cnn3cc(-c4ccc(OCCN5CCCCC5)cc4)cnc23)cs1)C(F)(F)F — relative inhibition (WNK2 (Homo sapiens, UniProt Q9Y3S1); radiometric kinase; 15 nM; reference: WNK2 over ULK1): 0.0227
NCCCCC(=O)O — normalised MST signal (SLC6A6 (Homo sapiens, UniProt P31641, Y138A); binding, microscale thermophoresis; 30.5 nM, room temperature, with: 50 nM labelled protein; higher = more binding): 0.0132
O[C@@H](c1cc(C(F)(F)F)nc2c(C(F)(F)F)cccc12)[C@H]1CCCCN1 — kon (GAP50; binding, surface plasmon resonance; 1:1 binding model): 11000 M⁻¹ s⁻¹
O=c1cc(NCCc2ccccc2Cl)[nH]c(=O)[nH]1 — inhibition (FFAR4; antagonist, β-arrestin recruitment; CHO cells; 10 µM, with: 4 µM TUG-891): 9 ± 2%
CCc1oc2c([C@H](CO)N(CC)CC)cccc2c1C — activity (FFAR4; agonist, NanoBiT G-protein dissociation; concentration not given): no effect
CC[C@@H]1[C@H](F)C(=O)N[C@@H]1COc1nccc2cc(C(N)=O)c(OC)cc12 — inhibition (RPS6KA1 (Homo sapiens, UniProt Q15418); ATP probe binding, KiNativ profiling, refers to: domain 1 activation loop; THP-1 cell lysate; 0.2 mM): 14.6%
O=C(COP(=O)(O)O)[C@@H](O)[C@H](O)[C@H](O)COP(=O)(O)O — thermal stability ratio (Cleavage and polyadenylation specificity factor subunit 2 (Homo sapiens, UniProt Q9P2I0); thermal proteome profiling, refers to: CPSF2; HepG2 cell lysate; concentration not given, 57 over 37 °C, mean; reference: compound over control): 0.585
O=C(COc1ccc(C2CCC(=O)NC2=O)cc1)NCCCCCCN1CCc2c(c3ccccc3n2Cc2ccc(C(=O)NO)cc2)C1 (centres unmarked) — degradation (HDAC10 (Homo sapiens, UniProt Q969S8); degrader, western blot; MM1.S; 1 µM, 24 h): 84%
Clc1ccc(C(c2c[nH]c3ccccc23)c2c[nH]c3ccccc23)cc1 — activation (Nuclear receptor subfamily 4 group A member 2, LBD (Homo sapiens, UniProt P43354); reporter gene, Gal4 hybrid reporter; 10 µM; reference: vehicle): 1.24 fold
CCCC[C@H](NC(=O)[C@H](C)c1c(C)[nH]c2ccc(O)cc12)c1ncc(-c2cc3ccccc3nc2OC)[nH]1 — effect (Adra1b (Rattus norvegicus, UniProt P15823); rat; 10 µM): 59%
Nc1ncnc2c1ncn2[C@@H]1O[C@H](COP(=O)(O)CP(=O)(O)OP(=O)(O)O)[C@@H](O)[C@H]1O — calcium influx (P2X purinoceptor 1 (P2RX1, Homo sapiens, UniProt P51575, E282A); calcium influx; 10 µM; reference: ionomycin response): 99% and 100%
O=C(COc1ccc(C(F)(F)F)cc1C(F)(F)F)Nc1cc(C2CCC2)nn1C1CCC(F)(F)CC1 — Emax (Kir3.1/Kir3.2; thallium flux, activator; HEK293; reference: standard compound): 25%
CCc1nc2ccccc2n1C[C@H](O)COc1cc(C)ccc1Cl — koff (GAP50; binding, surface plasmon resonance; 1:1 binding model): 1.15 s⁻¹
O=c1cc(NCCCCCCO)[nH]c(=O)[nH]1 — agonist effect (FFAR4; β-arrestin recruitment; CHO; 10 µM; reference: 30 µM TUG-891): 1%
[2H]C([2H])(N)c1ccc(C(F)(F)F)cc1 — pKa2 (Maoa; kcat/Km descending limb free E S, substrate; pH 6.5-9.5): 9.1 ± 0.2
NCCCC(=O)O — thermal shift (uncharacterized protein (Pelagibacter ubique, UniProt Q4FKZ8); differential scanning fluorimetry; Candidatus Pelagibacter ubique; in-house screen): 5.32 °C and 3.97 °C
O=C(CCCc1ccccc1)C(=O)NCCc1ccc(Oc2ccc(C(F)(F)F)cn2)cc1 — probe-enriched protein abundance (Lipe (Mus musculus, UniProt P54310); inhibitor, refers to: LIPS; mouse, WAT cytosol proteome; 10 µM; reference: DMSO, lower = stronger inhibition): 308000 a.u.
CC(C)(C)c1cnc(CSc2cnc(NC(=O)C3CCN(C(=O)CCCCCCCN4Cc5cc6c(cc5C4)C(=O)N(C4CCC(=O)NC4=O)C6=O)CC3)s2)o1 (centres unmarked) — time to CDK9 degradation (CDK9 (Homo sapiens, UniProt P50750); degrader, Western blot; TC-71; 10 nM): ≤ 2 h
COc1ccc(CCNc2cc(=O)[nH]c(=O)[nH]2)cc1OC — agonist effect (FFAR4; agonist, β-arrestin recruitment; CHO cells; 10 µM; reference: 30 µM TUG-891): 1%
Nc1nc2c(ncn2[C@@H]2O[C@H](COP(=O)(O)O)[C@@H](O)[C@H]2O)c(=O)[nH]1 — reaction velocity (GUK1 (Homo sapiens, UniProt Q16774); enzyme activity, NADH-coupled; 250 µM, with: KCl 10 mM): 0.103 µM/s and 0.12 µM/s and 0.0998 µM/s
CO[C@@H]1[C@@H]2OP(=O)(O)OC[C@H]2O[C@H]1n1c(Sc2ccc(Cl)cc2)nc2c(N)ncnc21 — relative binding affinity (anti-cAMP antibody; antibody binding, competitive cAMP EIA; concentration not given, acetylated samples; reference: EC50 cAMP over EC50 cpd, higher = stronger binding): 0.0003
O=c1cc(-c2ccc(O)c(O)c2)oc2cc(O[C@@H]3O[C@H](CO)[C@@H](O)[C@H](O)[C@H]3O)cc(O)c12 — kon (Heat shock protein HSP 90-alpha, N-terminal domain (HSP90AA1, Homo sapiens, UniProt P07900); SPR, two-state model; N-terminal domain): 47100 ± 45800 M⁻¹ s⁻¹
O=C1O/C(=C\c2cc(F)ccc2OCCCN2CCOCC2)c2cc(Cc3cccc(F)c3)[nH]c(=O)c21 — binding free energy (PDE1C isoform PDE1C2; enzyme activity, inhibitor; with: 3H-cGMP substrate): -11 kcal/mol
NC(=O)NOCCCCCCCCCCCCCCCC[P+](c1ccccc1)(c1ccccc1)c1ccccc1.O=C([O-])C(F)(F)F — oxygen consumption rate (NADH dehydrogenase [ubiquinone] iron-sulfur protein 7, mitochondrial/NADH dehydrogenase [ubiquinone] iron-sulfur protein 2, mitochondrial/MT-ND1; complex I-dependent respiration, Seahorse XF96; HCT-116; 0.8 µM, 24 h; reference: control): 45.4 ± 1.48%
C#CCN(CCCN1CCN(C2CCCCC2)CC1)CC(=O)Nc1ccc(C(=O)c2ccccc2)cc1 — selectivity ratio (TMEM97 (Homo sapiens, UniProt Q5BJF2); radioligand binding; RT-4 cell membranes; reference: sigma1 over sigma2 receptor): ~10 fold
CN1CCC(NCc2cccc(-c3ccc(S(=O)(=O)NCc4ccccc4)cc3)c2)CC1 — koff (GAP50; binding, surface plasmon resonance; 1:1 binding model): 0.564 s⁻¹
COC(=O)c1ccc(NC(=O)COc2ccc(Cl)cc2Cl)s1 — activity (Kir3.1/Kir3.2; activator, thallium flux; HEK293; concentration not given): inactive
CC1=NN(c2ccc(C)cc2)C(=O)C1=NNc1ccc(S(N)(=O)=O)cc1 — inhibition (Alpha-amylase (Bos taurus, UniProt Q3MHH8); enzyme activity, inhibitor, glucose oxidase; 100 µg/mL, with: dextrin): 25.5%
